{"data": "Results of several laboratories", "note": "A part holds a random share of what one study measured.", "sequence of UniProt O14730 (whole entry, looked up)": "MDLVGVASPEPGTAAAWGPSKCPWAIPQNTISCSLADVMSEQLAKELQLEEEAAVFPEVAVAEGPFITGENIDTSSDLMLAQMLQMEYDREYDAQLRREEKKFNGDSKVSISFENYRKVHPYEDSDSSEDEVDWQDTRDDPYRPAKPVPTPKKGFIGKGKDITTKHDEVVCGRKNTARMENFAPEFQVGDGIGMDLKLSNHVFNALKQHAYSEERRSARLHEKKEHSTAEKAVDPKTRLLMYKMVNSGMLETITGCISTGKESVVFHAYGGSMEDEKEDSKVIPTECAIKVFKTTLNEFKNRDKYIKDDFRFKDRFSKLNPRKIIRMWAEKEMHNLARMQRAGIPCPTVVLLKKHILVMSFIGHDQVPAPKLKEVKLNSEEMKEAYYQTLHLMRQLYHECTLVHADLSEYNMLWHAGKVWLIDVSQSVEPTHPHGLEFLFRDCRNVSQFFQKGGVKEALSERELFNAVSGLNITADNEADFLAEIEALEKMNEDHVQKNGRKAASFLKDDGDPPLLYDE", "sequence of UniProt Q13882 (whole entry, looked up)": "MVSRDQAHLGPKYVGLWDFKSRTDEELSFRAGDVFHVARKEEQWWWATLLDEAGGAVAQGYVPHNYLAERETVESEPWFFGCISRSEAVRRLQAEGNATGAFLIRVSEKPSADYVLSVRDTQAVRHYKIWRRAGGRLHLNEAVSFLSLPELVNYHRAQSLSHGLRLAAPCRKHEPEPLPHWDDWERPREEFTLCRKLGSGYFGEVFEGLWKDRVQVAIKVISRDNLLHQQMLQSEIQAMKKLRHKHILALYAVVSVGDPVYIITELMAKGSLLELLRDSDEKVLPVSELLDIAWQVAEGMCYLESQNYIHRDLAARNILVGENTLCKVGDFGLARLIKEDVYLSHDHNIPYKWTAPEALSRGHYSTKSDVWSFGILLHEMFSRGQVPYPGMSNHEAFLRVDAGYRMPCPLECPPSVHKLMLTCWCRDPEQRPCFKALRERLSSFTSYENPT", "sequence of UniProt P54760 (whole entry, looked up)": "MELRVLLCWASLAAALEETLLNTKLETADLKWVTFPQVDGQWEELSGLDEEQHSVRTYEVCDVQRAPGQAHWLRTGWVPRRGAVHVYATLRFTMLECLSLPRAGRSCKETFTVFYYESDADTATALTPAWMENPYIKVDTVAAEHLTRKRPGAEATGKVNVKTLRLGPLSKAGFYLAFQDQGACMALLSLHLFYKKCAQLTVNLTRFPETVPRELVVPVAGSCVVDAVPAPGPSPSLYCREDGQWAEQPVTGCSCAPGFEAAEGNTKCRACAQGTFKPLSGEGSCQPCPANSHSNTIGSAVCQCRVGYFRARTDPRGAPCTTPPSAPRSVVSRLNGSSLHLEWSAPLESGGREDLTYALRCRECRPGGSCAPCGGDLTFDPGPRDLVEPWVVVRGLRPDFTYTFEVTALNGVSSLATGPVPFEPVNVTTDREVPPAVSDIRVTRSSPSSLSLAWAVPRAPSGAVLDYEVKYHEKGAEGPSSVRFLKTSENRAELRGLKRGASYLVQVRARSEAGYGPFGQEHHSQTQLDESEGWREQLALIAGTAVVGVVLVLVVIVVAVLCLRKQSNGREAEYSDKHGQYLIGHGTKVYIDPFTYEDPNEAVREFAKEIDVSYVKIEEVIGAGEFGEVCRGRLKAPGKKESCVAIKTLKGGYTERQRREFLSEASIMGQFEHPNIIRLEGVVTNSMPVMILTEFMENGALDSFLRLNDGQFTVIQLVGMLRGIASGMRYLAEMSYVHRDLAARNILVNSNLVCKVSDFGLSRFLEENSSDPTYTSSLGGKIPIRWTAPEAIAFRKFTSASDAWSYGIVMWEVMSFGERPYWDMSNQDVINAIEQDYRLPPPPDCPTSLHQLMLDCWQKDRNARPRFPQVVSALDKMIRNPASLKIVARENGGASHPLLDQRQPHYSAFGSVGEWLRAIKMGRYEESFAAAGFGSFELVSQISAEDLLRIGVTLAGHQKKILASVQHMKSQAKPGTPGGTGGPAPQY", "sequence of UniProt O00750 (whole entry, looked up)": "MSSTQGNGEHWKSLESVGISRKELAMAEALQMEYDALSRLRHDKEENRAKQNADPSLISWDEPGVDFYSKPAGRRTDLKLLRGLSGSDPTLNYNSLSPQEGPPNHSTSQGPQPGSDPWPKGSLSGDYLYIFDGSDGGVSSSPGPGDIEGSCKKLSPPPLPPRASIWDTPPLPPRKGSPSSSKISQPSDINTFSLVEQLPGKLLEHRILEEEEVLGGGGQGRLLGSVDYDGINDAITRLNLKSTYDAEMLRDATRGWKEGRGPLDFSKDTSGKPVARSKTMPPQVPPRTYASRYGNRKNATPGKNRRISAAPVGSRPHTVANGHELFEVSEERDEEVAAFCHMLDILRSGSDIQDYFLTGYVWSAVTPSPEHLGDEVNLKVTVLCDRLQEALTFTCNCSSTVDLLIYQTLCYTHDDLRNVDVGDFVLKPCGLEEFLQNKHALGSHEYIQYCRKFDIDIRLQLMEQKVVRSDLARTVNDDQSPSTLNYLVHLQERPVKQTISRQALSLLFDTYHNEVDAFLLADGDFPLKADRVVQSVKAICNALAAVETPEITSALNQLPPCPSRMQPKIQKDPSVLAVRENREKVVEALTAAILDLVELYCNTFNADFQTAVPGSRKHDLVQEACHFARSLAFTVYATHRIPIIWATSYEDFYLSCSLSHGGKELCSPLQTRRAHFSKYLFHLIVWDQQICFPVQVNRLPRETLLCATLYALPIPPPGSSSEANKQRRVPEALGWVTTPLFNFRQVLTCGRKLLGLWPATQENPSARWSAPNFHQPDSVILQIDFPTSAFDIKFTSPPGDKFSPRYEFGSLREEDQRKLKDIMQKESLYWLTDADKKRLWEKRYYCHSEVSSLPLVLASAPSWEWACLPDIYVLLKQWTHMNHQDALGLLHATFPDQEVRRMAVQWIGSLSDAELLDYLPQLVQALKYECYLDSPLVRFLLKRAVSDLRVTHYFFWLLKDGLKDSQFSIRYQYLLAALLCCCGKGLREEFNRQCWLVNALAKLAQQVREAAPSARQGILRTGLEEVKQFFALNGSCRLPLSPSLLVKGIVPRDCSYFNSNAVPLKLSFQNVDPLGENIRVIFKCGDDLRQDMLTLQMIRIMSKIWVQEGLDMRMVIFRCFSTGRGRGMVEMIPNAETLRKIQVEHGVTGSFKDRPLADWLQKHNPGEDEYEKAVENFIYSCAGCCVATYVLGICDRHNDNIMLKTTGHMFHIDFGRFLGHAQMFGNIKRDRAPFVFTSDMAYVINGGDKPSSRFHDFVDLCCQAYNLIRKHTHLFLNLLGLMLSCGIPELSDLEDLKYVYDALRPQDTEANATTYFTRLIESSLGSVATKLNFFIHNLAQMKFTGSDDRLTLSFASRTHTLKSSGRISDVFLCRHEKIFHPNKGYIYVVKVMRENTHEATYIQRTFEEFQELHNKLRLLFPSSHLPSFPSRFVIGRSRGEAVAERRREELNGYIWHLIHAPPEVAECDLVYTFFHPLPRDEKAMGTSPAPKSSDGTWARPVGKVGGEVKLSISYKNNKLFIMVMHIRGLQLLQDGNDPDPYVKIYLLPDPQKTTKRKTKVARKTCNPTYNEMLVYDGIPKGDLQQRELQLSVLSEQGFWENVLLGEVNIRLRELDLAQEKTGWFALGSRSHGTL"}
{"data": "Block 1", "target": "Sigma non-opioid intracellular receptor 1 (SIGMAR1, Homo sapiens, UniProt Q99720)", "observed": "ligand displacement", "tested at": "10 µM", "sequence of UniProt Q99720 (whole entry, looked up)": "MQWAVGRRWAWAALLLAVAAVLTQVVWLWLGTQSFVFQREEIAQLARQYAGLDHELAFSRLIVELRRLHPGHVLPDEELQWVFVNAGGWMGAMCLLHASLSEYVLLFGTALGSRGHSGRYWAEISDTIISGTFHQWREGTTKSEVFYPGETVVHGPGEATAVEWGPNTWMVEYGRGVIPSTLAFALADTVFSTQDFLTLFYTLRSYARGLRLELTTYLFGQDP"}
{"SMILES": "CN1CCN(c2ccnc(NCCc3ccccc3)n2)CC1", "inhibition [%]": 98.8}
{"SMILES": "O=C1NC(c2ccccn2)Sc2ccccc21 (centres unmarked)", "inhibition [%]": -10.9}
{"SMILES": "Cc1cc(Nc2nccc(C)n2)cc(-c2cnc([C@@]3(O)CC[C@H](C(=O)O)C(C)(C)C3)s2)c1", "inhibition [%]": -22.9}
{"SMILES": "CN1CCN(C(=O)C(C)(C)c2ccc(C(=O)Nc3cn4cc(-c5cc(C(C)(C)C)cc(C(C)(C)C)c5)ccc4n3)cc2)CC1", "inhibition [%]": 90}
{"SMILES": "O=C(NS(=O)(=O)c1ccc(NCC2CCOCC2)c([N+](=O)[O-])c1)c1ccc(N2CCN(Cc3ccc(C(F)(F)F)cc3-c3ccc(Cl)cc3)CC2)cc1Oc1cnc2[nH]ccc2c1", "inhibition [%]": 11.1}
{"SMILES": "CCC(F)(F)c1cc(N2CCC(S(C)(=O)=O)CC2)nc2sc(C(N)=O)c(N)c12", "inhibition [%]": 8.89}
{"SMILES": "CS(=O)(=O)N1CCCC(NC(=O)[C@H](CCC2CCCCC2)NC(=O)c2ccc(CNC(=O)c3cnc4ccccn34)cc2)C1 (some centres unmarked)", "inhibition [%]": 32}
{"SMILES": "CC1=C(C#N)C(c2ccc3[nH]nc(C)c3c2)C(C#N)=C(C)N1", "inhibition [%]": -9.08}
{"SMILES": "CN([C@@H]1CCc2c(CC(=O)O)c3ccccc3n2C1)S(=O)(=O)c1ccc(F)cc1", "inhibition [%]": -33.7}
{"SMILES": "Nc1cnc(N2CCc3cc(S(=O)(=O)Nc4c(F)cc(Cl)cc4F)cc(N4CCCC4=O)c32)nc1", "inhibition [%]": -14.4}
{"SMILES": "CC(=O)Nc1ncc(CN2CCC[C@H](Cc3cc(C)nc(C)c3)C2)s1", "inhibition [%]": 46.5}
{"SMILES": "Cn1cc(Cl)c2c(Oc3c(F)cc(Nc4cc(Cl)nc(N)n4)cc3F)ccnc21", "inhibition [%]": 22.3}
{"SMILES": "CN1CCN(c2cnc3c(C4CCN(C(=O)c5ccc(OC(F)(F)F)cc5N)CC4)ncnc3c2)CC1", "inhibition [%]": 72.4}
{"SMILES": "COc1cccc(NC(=O)c2nc3scc(CN(C)Cc4ccccc4)c3c(=O)[nH]2)c1", "inhibition [%]": 80.7}
{"SMILES": "CN(C)CC#Cc1ccc(OCCCc2sc(N3CCc4cccc(C(=O)Nc5nc6ccccc6s5)c4C3)nc2C(=O)O)c(F)c1", "inhibition [%]": 53.3}
{"SMILES": "NS(=O)(=O)c1cc(NC(=O)Cc2ccccc2)ccc1Oc1cccc(Cl)c1", "inhibition [%]": -8.2}
{"SMILES": "O=C(N[C@H]1CCCCC/C=C\\C2C[C@@]2(C(=O)O)NC(=O)[C@@H]2C[C@@H](Oc3ccncc3)CN2C1=O)OC1CCCC1 (some centres unmarked)", "inhibition [%]": 11.1}
{"SMILES": "CC[C@H](CC(=O)O)n1c(=O)c2ncccc2n(Cc2cn(C)c3cc(C)cc(C)c23)c1=O", "inhibition [%]": -15.9}
{"SMILES": "CNC(=N)NCCC[C@H](NC(=O)[C@H](CC(C)C)NC(=O)NNC(=O)[C@H](Cc1ccccc1)NC(=O)[C@H](CO)NC(=O)[C@H](CC(N)=O)NC(=O)[C@@H](Cc1ccncc1)NC(=O)[C@H](N)Cc1ccc(O)cc1)C(=O)N[C@@H](Cc1ccccc1)C(N)=O", "inhibition [%]": 3.72}
{"SMILES": "COc1cc(N[C@@H]2CCCC[C@]2(O)C(F)(F)F)ccc1F", "inhibition [%]": -19.6}
{"SMILES": "Cc1c(NC(=O)c2cc(C(N)=O)nc3cc(F)ccc23)c(C(F)(F)F)nn1Cc1ccc(C#N)cc1", "inhibition [%]": -2.5}
{"SMILES": "Cc1ccccc1Oc1cc(-n2c(=O)cc(C(F)(F)F)[nH]c2=O)c2ccccc2c1Cl", "inhibition [%]": 19}
{"SMILES": "c1ccc(C2CCN(c3cnc4c(N5CCOCC5)nccn34)CC2)cc1", "inhibition [%]": 44}
{"SMILES": "CC1CCN(c2ccnc(NCc3cn(C)cn3)n2)CC1", "inhibition [%]": 36.6}
{"data": "Block 2", "organism": "Plasmodium berghei", "action": "inhibitor", "cell line": "Huh-7", "strain": "liver stage", "tested at": "10 µM", "time": "24 h", "baseline": "untreated control"}
{"Compound": "CC(=O)O[C@H]1C[C@@]2(C)[C@@H](C[C@@H](O)[C@H]3[C@@]4(C)CC[C@@H](O)[C@@H](C)[C@@H]4CC[C@@]32C)/C1=C(\\CCC=C(C)C)C(=O)O", "infection rate [%]": 90.2}
{"Compound": "CCN(CCCCOC(=O)c1ccc(OC)c(OC)c1)C(C)Cc1ccc(OC)cc1 (centres unmarked)", "infection rate [%]": 76.5}
{"Compound": "C[C@@H]1C/C=C/C=C/C=C/C=C/[C@H](O[C@@H]2O[C@H](C)[C@@H](O)[C@H](N)[C@@H]2O)C[C@@H]2O[C@](O)(C[C@@H](O)C[C@H]3O[C@@H]3/C=C/C(=O)O1)C[C@H](O)[C@H]2C(=O)O", "infection rate [%]": 106}
{"Compound": "C[N+](C)(C)C[C@H](O)CC(=O)[O-]", "infection rate [%]": 114}
{"Compound": "NS(=O)(=O)c1cc2c(cc1Cl)NCNS2(=O)=O", "infection rate [%]": 93.7}
{"Compound": "COc1c(C)c2c(c(O)c1C/C=C(\\C)CCC(=O)O)C(=O)OC2", "infection rate [%]": 22.5}
{"data": "Block 3", "SMILES": "Cc1ccc(NC(=O)c2ccnc(C(F)(F)F)c2)cc1-c1cc(OCCO)nc(N2CCOCC2)c1", "tested at": "1 µM"}
{"target": "PIK3C2B (Homo sapiens, UniProt O00750)", "technique": "competitive binding panel", "baseline": "vehicle", "remaining binding [%]": 100}
{"target": "RIOK3 (Homo sapiens, UniProt O14730)", "technique": "competitive binding panel", "baseline": "vehicle", "remaining binding [%]": 66}
{"target": "ABL2 (Homo sapiens, UniProt P42684)", "technique": "competitive binding panel", "baseline": "vehicle", "remaining binding [%]": 99}
{"target": "PTK6 (Homo sapiens, UniProt Q13882)", "technique": "competitive binding", "setting": "BRK", "remaining binding [%]": 99}
{"target": "EPHB4 (Homo sapiens, UniProt P54760)", "technique": "competitive binding panel", "baseline": "vehicle", "remaining binding [%]": 87}
{"data": "Block 4", "target": "Eukaryotic initiation factor 4A-III (Homo sapiens, UniProt P38919)", "observed": "RNA clamping", "technique": "fluorescence polarization", "tested at": "concentration not given", "setting": "mean of two replicates", "together with": "FAM-labelled poly r(AG)8 RNA", "sequence of UniProt P38919 (whole entry, looked up)": "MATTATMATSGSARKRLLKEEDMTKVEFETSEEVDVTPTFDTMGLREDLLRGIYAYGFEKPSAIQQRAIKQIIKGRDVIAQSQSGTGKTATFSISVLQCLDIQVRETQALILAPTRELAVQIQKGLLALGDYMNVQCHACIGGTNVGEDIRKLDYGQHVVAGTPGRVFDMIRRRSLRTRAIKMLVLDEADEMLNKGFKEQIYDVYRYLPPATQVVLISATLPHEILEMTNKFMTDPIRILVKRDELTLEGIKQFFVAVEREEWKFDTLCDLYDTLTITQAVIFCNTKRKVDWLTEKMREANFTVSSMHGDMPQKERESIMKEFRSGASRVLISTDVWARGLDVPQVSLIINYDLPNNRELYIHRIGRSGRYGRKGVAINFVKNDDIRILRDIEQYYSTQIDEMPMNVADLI"}
{"Compound": "COC(=O)[C@H]1C(=O)[C@@]2(NCc3nccn3C)c3c(OC)cc(OC)cc3O[C@@]2(c2ccc(OC)cc2)[C@@H]1c1ccccc1", "fluorescence polarization change [mP]": 3.4}
{"Compound": "COc1ccc([C@@]23Oc4cc(OC)cc(OC)c4[C@]2(O)[C@H](O)[C@H](C(=O)c2cc(C)c(C)o2)[C@H]3c2ccccc2)cc1", "fluorescence polarization change [mP]": 12.3}
{"Compound": "C=CCN1c2cc(OC)cc(OC)c2[C@]2(O)[C@H](O)[C@H](C(=O)OC)[C@@H](c3ccccc3)[C@]12c1ccc(OC)cc1", "fluorescence polarization change [mP]": 0.4}
{"Compound": "COCCN[C@@]12c3nc(-c4ccccc4)[nH]c(=O)c3[C@@H](c3ccccc3)[C@]1(c1ccc(OC)cc1)Oc1cc(OC)cc(OC)c12", "fluorescence polarization change [mP]": 2}
{"Compound": "COc1cc(OC)c2c(c1)O[C@@]1(c3ccc(OC)c(O)c3)[C@H](c3ccccc3)[C@@H](C(=O)c3ccco3)[C@@H](O)[C@@]21O", "fluorescence polarization change [mP]": -1.8}
{"Compound": "C#CCNC(=O)CCCn1c(-c2ccccc2)nc2c(c1=O)[C@@H](c1ccccc1)[C@]1(c3ccc(OC)cc3)Oc3cc(OC)cc(OC)c3[C@]21O", "fluorescence polarization change [mP]": 8.3}
{"Compound": "COc1ccc([C@]23Oc4cc(OC)cc(OC)c4[C@@]4(O[C@@H]5CCCN5C(=O)[C@@H]4[C@H]2c2ccccc2)[C@@H]3O)cc1", "fluorescence polarization change [mP]": -3}
{"data": "Block 5", "target": "Calcium/calmodulin-dependent protein kinase type II subunit alpha (CAMK2A, Homo sapiens, UniProt Q9UQM7)", "observed": "enzyme activity", "action": "inhibitor", "tested at": "10 µM", "sequence of UniProt Q9UQM7 (whole entry, looked up)": "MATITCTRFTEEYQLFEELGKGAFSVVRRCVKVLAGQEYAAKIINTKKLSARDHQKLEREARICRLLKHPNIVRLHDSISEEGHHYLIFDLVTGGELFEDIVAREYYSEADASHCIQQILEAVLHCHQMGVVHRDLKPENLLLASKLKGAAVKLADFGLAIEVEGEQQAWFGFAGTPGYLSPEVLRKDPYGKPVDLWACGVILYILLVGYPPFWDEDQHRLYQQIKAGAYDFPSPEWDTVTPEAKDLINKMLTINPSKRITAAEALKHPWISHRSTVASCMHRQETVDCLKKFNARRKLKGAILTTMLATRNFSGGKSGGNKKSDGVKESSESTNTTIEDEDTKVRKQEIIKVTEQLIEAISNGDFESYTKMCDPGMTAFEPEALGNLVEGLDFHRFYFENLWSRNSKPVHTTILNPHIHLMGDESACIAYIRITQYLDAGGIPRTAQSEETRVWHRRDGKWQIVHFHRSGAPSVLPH"}
{"SMILES": "COc1cc2c(c(OC)c1OC)-c1c3cc4c(c1OC[C@@H](C)[C@@](C)(O)C(=O)O[C@@H]2[C@@](C)(O)[C@@H](C)C3)OCO4", "inhibition [%]": -3}
{"SMILES": "CCCCCCC/C=C/C(=O)CCc1ccc(O)c(OC)c1", "inhibition [%]": -42}
{"SMILES": "O=C(O)Cc1cc(O)ccc1O", "inhibition [%]": -22}
{"SMILES": "Oc1cc(O)c2c(c1)O[C@@]1(c3ccc(O)c(O)c3)Oc3cc(O)c4c(c3[C@@H]2[C@H]1O)O[C@H](c1ccc(O)c(O)c1)[C@H](O)[C@H]4c1c(O)cc(O)c2c1O[C@H](c1ccc(O)c(O)c1)[C@H](O)C2", "inhibition [%]": -24}
{"SMILES": "Cn1cncc1C[C@H](N)C(=O)O", "inhibition [%]": -13}
{"SMILES": "COC[C@H]1C[C@@H](c2ncc(-c3ccc4c(c3)COc3cc5c(ccc6[nH]c([C@@H]7CC[C@H](C)N7C(=O)[C@@H](NC(=O)OC)C(C)C)nc65)cc3-4)[nH]2)N(C(=O)[C@H](NC(=O)OC)c2ccccc2)C1", "inhibition [%]": -13}
{"SMILES": "O=C(/C=C/c1ccc(O)c(O)c1)O[C@@H]1[C@H](O)C[C@@](O)(C(=O)O)C[C@H]1OC(=O)/C=C/c1ccc(O)c(O)c1", "inhibition [%]": -20}
{"SMILES": "CC(C)(C)CC(=O)OCC(=O)[C@@]1(O)CC[C@H]2[C@@H]3CCC4=CC(=O)C=C[C@]4(C)[C@H]3[C@@H](O)C[C@@]21C", "inhibition [%]": -4}
